Results gathered from unrelated publications.
Cell line: L02
Read-out: cell growth or viability

| SMILES | test | setting | IC50 [µM] |
| --- | --- | --- | --- |
| COc1cc([C@@H]2c3cc4c(cc3[C@H](OC(=O)CCCc3ccc(NS(=O)(=O)c5ccccc5Br)cc3)[C@H]3COC(=O)[C@H]23)OCO4)cc(OC)c1OC | CCK-8 | 24 h | > 100 |
| O=C(/C=C/c1ccc(O)cc1)OCCCC[P+](c1ccccc1)(c1ccccc1)c1ccccc1 | SRB | 24 h | 186 |
| COc1ccc(-c2nnc(-c3ccccn3)[nH]2)cc1OC | MTT | 24 h | > 100 |
| COc1cc(/C=C/C(=O)OCCCC[P+](c2ccccc2)(c2ccccc2)c2ccccc2)ccc1O | SRB | 24 h | 89.7 |
| CC1(C)CC[C@@]2(CO)C(=C3C=C[C@@H]4[C@@]5(C)CC[C@H](O)[C@@](C)(CO)[C@@H]5CC[C@@]4(C)[C@]3(C)C[C@@H]2O)C1 |  | 24 h | 79.8 |
| COc1ccc2nc(Cl)c(-c3nc4ccccc4[nH]3)cc2c1 | MTT | 48 h | > 100 |
| O=C(/C=C/c1ccccc1)OCCCC[P+](c1ccccc1)(c1ccccc1)c1ccccc1 | SRB | 24 h | 105 |
| Cc1ccc2nc(Cl)c(-c3nc4cc(Cl)ccc4[nH]3)cc2c1 | MTT | 48 h | > 100 |
| O=S(=O)([O-])[O-].[Cu+2].c1ccc(-c2nnc(-c3ccc4c(c3)OCO4)[nH]2)nc1 | MTT | 24 h | 6 |
| Clc1ccc2[nH]c(-c3cc4ccccc4nc3Cl)nc2c1 | MTT | 48 h | > 100 |
| COc1ccc(CN2C(=O)C(=O)c3cc(NC(C)=O)ccc32)cc1 | MTT | 48 h | 5.12 |
| Clc1ccc2[nH]c(-c3cc4cc5c(cc4nc3Cl)OCO5)nc2c1 | MTT | 48 h | > 100 |
| NC(=S)c1ccc(O)cc1 | CCK-8 | 72 h | > 200 |

Excerpt of the above:
| SMILES | test | setting | IC50 [µM] |
| --- | --- | --- | --- |
| Clc1ccc2[nH]c(-c3cc4ccccc4nc3Cl)nc2c1 | MTT | 48 h | > 100 |
| COc1cc(/C=C/C(=O)OCCCC[P+](c2ccccc2)(c2ccccc2)c2ccccc2)ccc1O | SRB | 24 h | 89.7 |
